Published values from different studies.
Protocols differ between the studies behind these lines. ± marks the error that the study gave.
lasR: Transcriptional activator protein LasR (lasR, Pseudomonas aeruginosa, UniProt P25084)
Orco: Orco (Drosophila melanogaster, UniProt Q9VNB5)
MAPK8: Mitogen-activated protein kinase 8 (MAPK8, Homo sapiens, UniProt P45983)
HDAC6: Protein deacetylase HDAC6 (HDAC6, Homo sapiens, UniProt Q9UBN7)

By UniProt entry, the sequences of proteins in these tests, tags left out. Residues count along the entry.
UniProt P25084, whole entry: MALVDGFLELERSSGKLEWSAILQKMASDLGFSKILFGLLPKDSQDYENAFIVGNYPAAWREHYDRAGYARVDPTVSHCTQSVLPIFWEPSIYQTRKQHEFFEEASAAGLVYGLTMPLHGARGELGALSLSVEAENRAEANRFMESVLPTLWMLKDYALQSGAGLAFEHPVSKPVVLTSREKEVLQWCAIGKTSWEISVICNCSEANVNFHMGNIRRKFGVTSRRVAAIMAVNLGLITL
UniProt P25084, 1-173 limits assumed: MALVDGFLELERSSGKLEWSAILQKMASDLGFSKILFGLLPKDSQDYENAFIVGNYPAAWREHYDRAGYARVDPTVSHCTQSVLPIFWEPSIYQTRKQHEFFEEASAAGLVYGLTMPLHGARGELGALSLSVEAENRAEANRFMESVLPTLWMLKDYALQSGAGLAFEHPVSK
UniProt Q9VNB5, whole entry: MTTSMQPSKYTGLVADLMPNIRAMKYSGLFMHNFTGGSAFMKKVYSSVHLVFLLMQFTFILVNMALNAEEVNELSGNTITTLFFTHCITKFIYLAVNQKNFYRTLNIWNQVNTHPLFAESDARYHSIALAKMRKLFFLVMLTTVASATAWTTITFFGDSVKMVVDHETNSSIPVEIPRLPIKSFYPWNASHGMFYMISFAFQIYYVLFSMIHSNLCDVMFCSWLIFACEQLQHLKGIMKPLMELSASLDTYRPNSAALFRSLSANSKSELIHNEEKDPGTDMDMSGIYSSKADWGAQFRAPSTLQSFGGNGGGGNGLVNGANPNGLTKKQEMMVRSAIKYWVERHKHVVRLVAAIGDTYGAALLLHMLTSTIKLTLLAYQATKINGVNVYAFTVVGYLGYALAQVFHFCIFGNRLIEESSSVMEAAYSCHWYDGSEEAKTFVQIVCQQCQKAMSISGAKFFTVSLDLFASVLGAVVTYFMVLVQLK
UniProt P45983, 1-384 isoform 3: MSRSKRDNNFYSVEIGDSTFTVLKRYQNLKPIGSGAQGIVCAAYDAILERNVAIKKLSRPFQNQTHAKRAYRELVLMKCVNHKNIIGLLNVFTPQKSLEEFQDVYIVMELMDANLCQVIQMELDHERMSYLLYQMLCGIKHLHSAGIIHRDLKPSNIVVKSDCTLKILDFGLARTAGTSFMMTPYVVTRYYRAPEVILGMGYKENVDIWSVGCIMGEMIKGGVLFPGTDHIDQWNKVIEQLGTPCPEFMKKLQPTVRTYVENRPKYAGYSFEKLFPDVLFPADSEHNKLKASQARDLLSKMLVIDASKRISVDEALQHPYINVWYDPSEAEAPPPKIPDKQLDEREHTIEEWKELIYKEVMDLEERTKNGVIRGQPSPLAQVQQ
UniProt Q8RLA6, 21-275 limits assumed: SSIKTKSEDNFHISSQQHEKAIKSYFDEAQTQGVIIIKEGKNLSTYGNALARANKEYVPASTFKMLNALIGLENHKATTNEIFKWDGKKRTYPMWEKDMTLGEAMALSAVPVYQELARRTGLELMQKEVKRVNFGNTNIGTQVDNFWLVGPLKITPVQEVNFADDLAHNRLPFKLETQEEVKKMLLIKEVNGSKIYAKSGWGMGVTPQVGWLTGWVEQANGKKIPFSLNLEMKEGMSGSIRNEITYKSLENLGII
UniProt P09958, 108-715 limits assumed: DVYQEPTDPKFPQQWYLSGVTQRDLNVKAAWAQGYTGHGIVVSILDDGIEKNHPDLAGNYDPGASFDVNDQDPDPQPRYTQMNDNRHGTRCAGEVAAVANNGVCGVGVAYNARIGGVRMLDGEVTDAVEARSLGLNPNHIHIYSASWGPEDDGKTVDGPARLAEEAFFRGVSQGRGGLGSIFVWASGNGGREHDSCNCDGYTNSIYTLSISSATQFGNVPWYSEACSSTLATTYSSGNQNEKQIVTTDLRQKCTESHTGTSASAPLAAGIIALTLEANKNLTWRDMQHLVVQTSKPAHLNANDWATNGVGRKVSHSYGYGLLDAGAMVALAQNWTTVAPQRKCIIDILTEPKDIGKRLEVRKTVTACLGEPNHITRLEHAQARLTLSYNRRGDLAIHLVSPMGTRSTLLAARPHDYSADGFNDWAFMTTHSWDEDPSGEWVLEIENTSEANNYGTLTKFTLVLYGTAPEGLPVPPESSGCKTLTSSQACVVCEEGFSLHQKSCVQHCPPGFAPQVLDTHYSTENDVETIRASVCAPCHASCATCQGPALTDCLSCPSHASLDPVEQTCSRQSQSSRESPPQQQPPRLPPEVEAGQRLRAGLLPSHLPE
UniProt P06730, whole entry: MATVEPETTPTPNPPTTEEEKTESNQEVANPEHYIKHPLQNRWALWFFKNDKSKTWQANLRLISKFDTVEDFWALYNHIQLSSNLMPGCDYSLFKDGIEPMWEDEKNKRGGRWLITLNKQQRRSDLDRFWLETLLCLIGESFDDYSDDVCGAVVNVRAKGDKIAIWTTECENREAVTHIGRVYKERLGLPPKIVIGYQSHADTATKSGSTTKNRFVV
UniProt P42866, whole entry: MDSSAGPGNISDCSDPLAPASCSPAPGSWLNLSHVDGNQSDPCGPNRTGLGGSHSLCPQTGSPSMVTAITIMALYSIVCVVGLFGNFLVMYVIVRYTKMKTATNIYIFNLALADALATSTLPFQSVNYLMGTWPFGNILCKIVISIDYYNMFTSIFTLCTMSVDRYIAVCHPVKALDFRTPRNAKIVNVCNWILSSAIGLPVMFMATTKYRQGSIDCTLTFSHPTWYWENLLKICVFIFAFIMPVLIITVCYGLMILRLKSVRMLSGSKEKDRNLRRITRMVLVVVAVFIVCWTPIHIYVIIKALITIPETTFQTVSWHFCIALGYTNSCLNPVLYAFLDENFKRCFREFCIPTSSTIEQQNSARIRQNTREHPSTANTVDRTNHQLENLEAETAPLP
UniProt P31652, whole entry: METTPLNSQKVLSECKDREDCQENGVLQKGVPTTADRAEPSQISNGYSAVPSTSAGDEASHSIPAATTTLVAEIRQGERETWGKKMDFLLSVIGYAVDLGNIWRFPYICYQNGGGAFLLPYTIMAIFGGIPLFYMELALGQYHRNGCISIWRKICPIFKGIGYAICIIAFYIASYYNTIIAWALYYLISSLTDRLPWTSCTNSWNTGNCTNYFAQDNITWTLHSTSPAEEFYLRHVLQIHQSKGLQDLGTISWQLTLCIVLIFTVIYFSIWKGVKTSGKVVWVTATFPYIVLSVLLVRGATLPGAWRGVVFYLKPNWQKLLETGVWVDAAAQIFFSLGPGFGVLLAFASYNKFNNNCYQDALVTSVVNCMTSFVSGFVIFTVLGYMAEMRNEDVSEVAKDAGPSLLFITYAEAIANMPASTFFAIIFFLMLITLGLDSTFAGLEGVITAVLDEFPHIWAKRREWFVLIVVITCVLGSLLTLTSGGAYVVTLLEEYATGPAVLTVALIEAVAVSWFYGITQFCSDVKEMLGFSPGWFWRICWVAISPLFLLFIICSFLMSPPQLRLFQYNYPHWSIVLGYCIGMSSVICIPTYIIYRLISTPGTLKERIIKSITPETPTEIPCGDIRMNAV
UniProt Q07440, whole entry P104K/C113S, looked up: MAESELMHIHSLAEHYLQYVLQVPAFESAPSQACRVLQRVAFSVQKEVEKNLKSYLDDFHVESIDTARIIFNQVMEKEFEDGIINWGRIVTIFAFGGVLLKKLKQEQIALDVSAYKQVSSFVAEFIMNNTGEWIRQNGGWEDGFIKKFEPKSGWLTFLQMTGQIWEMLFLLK
UniProt Q9M9V8, whole entry: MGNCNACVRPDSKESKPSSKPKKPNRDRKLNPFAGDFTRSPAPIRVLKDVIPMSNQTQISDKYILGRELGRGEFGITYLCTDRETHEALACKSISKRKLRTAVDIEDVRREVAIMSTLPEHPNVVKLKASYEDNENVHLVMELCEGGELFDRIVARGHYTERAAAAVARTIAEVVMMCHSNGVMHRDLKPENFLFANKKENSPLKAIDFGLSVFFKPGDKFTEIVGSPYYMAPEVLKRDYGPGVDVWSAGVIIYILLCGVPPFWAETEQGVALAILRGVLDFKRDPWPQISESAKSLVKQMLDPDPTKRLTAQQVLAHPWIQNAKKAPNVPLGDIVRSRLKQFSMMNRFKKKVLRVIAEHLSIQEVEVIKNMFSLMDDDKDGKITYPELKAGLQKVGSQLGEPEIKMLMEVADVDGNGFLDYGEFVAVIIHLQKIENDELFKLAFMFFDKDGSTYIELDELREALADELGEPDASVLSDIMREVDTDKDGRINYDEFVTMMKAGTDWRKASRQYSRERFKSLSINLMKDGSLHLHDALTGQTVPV
UniProt P51452, 28-179 limits assumed: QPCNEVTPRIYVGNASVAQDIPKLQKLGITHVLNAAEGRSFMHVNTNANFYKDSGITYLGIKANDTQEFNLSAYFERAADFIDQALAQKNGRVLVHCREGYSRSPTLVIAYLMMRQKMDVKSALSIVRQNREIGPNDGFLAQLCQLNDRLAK
UniProt P32300, whole entry: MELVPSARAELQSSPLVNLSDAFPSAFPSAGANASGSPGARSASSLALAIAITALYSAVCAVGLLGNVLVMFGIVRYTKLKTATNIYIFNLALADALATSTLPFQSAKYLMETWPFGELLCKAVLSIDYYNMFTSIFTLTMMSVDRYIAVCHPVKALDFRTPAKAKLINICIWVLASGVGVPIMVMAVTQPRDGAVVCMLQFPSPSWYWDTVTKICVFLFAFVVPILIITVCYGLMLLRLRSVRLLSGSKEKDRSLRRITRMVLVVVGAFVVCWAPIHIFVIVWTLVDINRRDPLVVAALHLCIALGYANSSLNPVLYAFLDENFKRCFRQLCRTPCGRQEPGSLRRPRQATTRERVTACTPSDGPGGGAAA
UniProt O08914, whole entry: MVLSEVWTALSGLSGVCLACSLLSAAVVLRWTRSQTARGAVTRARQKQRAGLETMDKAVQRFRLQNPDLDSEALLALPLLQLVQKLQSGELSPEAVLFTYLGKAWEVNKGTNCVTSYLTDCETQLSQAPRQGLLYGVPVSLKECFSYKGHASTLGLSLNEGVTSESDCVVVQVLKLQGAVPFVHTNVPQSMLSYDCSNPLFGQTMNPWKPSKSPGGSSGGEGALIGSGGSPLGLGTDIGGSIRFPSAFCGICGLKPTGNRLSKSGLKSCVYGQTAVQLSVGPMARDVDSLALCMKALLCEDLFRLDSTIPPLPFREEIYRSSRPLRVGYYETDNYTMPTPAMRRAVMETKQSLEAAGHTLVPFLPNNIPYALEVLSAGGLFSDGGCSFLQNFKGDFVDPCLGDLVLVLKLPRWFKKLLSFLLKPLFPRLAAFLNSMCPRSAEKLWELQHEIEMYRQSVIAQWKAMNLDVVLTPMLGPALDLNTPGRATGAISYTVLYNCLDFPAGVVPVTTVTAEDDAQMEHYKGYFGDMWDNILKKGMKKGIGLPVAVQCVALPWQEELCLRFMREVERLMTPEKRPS
UniProt P08588, whole entry: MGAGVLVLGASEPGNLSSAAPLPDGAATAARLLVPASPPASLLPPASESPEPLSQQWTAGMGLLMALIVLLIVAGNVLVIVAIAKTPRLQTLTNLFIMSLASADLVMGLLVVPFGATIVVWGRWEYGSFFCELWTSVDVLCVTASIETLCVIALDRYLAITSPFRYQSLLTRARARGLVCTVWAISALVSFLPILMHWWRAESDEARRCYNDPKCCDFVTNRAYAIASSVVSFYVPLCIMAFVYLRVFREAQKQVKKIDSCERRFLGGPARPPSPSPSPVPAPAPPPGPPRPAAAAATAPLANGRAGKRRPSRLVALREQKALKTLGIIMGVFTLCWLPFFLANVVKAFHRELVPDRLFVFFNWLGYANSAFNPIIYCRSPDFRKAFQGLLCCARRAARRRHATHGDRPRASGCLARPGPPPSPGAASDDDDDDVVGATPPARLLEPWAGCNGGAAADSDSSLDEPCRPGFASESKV
UniProt Q6XEC0, 23-265 limits assumed: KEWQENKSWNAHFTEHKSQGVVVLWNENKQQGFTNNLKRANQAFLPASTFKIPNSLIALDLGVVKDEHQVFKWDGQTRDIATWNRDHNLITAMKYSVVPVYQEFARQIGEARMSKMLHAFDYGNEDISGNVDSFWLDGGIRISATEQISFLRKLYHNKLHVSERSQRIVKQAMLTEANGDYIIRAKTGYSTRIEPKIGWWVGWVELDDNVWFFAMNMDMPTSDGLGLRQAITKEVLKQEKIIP
UniProt C7C422, 36-270 M154L/A233V limits assumed: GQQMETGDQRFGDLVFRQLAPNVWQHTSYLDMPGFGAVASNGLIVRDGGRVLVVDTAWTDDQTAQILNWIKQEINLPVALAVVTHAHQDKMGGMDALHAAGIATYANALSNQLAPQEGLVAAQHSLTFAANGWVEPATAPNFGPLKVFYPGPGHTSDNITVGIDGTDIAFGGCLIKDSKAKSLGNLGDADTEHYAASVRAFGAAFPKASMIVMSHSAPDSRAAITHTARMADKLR
UniProt Q9BY41, whole entry: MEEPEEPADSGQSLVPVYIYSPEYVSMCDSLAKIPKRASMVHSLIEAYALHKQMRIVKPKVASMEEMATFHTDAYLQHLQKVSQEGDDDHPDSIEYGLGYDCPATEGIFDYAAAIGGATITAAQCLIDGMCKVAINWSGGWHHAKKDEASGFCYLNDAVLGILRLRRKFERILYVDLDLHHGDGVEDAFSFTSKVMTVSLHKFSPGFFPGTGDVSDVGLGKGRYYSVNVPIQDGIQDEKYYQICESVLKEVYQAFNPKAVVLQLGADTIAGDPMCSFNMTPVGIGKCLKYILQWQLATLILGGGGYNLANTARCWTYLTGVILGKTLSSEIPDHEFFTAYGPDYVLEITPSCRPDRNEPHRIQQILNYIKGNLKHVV

O=S(=O)(O)c1ccc2cc(S(=O)(=O)O)ccc2c1 gave a ligand efficiency of 0.29 (Beta-lactamase (blaOXA-33, Acinetobacter baumannii, UniProt Q8RLA6); enzyme activity, inhibitor).
CC(C)C[C@@H](NC(=O)[C@H](NC(=O)[C@H]1CCCN1)[C@H](C)O)C(=O)N[C@H](Cc1c[nH]cn1)C(=O)N[C@@H](C(=O)N[C@H](Cc1c[nH]cn1)C(=O)N[C@H](CC(N)=O)C(=O)N[C@H](CCCNC(=N)N)C(=O)N[C@H](CCCNC(=N)N)C(=O)N[C@H](CCCNC(=N)N)C(=O)N[C@H](CCCNC(=N)N)C(=O)N[C@H](CCCNC(=N)N)C(N)=O)[C@H](C)O: “incidence of abnormal EEG” 16.7% (adverse events, phase I single ascending dose; healthy male subjects; 12 mg, grade 1).
With CCCCCCCC(=O)Oc1c(Br)cc(Br)cc1CNC(=O)c1ccccc1[N+](=O)[O-] the maximum efficacy was 99% (lasR; reporter gene, agonist; Escherichia coli JLD271 lasI-lacZ reporter; baseline: OdDHL).
With CC(C)c1ccc(NC(=O)CSc2nnc(-c3ccncc3)n2C2CC2)cc1 the efficacy was 162% (Orco; calcium mobilization, agonist; HEK293 expressing Drosophila Orco; baseline: VUAA1).
With COC(=O)[C@@]1(C)C=C(C(=O)Nc2ccc(C)c(C(=O)Nc3ccc(Nc4nccc(-c5cccnc5)n4)cc3)c2)C(=O)CC1 the remaining activity was 0.6 (MAPK8; kinase activity, inhibitor; 0.006774 µM, unit not given, together with: 10 mM GSH; baseline: DMSO).
The Km of CC(C)C[C@H](NC(=O)c1ccccc1N)C(=O)N[C@@H](CCCCN)C(=O)N[C@@H](CCCNC(=N)N)C(=O)N[C@@H](CCCNC(=N)N)C(=O)N[C@@H](CCCNC(=N)N)C(=O)N[C@@H](CCCNC(=N)N)C(=O)N[C@@H](CC(=O)O)C(=O)N[C@H](C(=O)N[C@@H](CCC(N)=O)C(=O)N[C@@H](CCC(N)=O)C(=O)N[C@@H](CCC(N)=O)C(=O)NCCNc1ccc([N+](=O)[O-])cc1[N+](=O)[O-])[C@@H](C)O is reported as 5.2 µM (Furin (FURIN, Homo sapiens, UniProt P09958); substrate; pH 7).
Cc1ccc(-c2csc(NP(=O)(O)OCC3OC(n4c[n+](Cc5ccccc5)c5c(=O)[nH]c(NC(=O)c6ccccc6)nc54)C4OC(C)(C)OC34)n2)cc1 (centres unmarked) gave a protein level of 72.5 (EIF4E (Homo sapiens, UniProt P06730); refers to: EIF4E; MCF7; concentration not given, unit not given; baseline: reference protein).
For C=CCN1CC[C@]23c4c5ccc(O)c4O[C@H]2[C@H](NC(=O)c2ccc(N=[N+]=[N-])c([125I])c2)CC[C@@]3(O)[C@H]1C5, “dissociation half-life (slow phase)” read 81 min (Oprm1 (Mus musculus, UniProt P42866); binding; CHO cell membranes; 0.1 nM, 25 °C).
For C[C@@H]1CN(C)CCN1c1nc(-c2ccc(F)cc2)cs1, the Vmax was 1.1 ± 0.2 pmol/min/well (Slc6a4 (Rattus norvegicus, UniProt P31652); [3H]5-HT uptake; HeLa transfected with Slc6a4; 0.15 µM).
Under “Noxa peptide bound”, O=[N+]([O-])c1cc(N=Nc2c(O)ccc3cc(S(=O)(=O)O)ccc23)c(O)c([N+](=O)[O-])c1 is recorded as 56.8% (Bcl-2-related protein A1 (Mus musculus, UniProt Q07440, C113S/P104K); binding, inhibitor, fluorescence polarization competition; 100 µM, overnight, 20 °C, together with: FITC-Noxa peptide 375 nM; baseline: peptide without protein).
The Km of CC(C)C[C@H](NC(=O)[C@@H]1CCCN1)C(=O)N[C@@H](C)C(=O)N[C@@H](CCCNC(=N)N)C(=O)N[C@H](C(=O)N[C@@H](CC(C)C)C(=O)N[C@@H](CO)C(=O)N[C@H](C(=O)N[C@@H](C)C(=O)NCC(=O)N[C@@H](CC(C)C)C(=O)N1CCC[C@H]1C(=O)NCC(=O)N[C@@H](CCCCN)C(=O)N[C@@H](CCCCN)C(=O)O)C(C)C)[C@@H](C)O is reported as 244 µM (Calcium-dependent protein kinase 10 (CPK10, Arabidopsis thaliana, UniProt Q9M9V8); peptide phosphorylation, substrate, filter-based kinase; 12 min, room temperature, together with: 50 µM ATP).
For CC(CCN[C@H](CN[C@H](CO)CN1CCC[C@H]1CN[C@H](CN)c1ccccc1)c1ccccc1)c1ccccc1 (some centres unmarked), “potentiation of amikacin” read 1.5 fold (Acinetobacter baumannii; bacterial growth; 8 µM, fold shift of IC50, together with: amikacin).
CC(=O)N[C@@H](Cc1c[nH]cn1)C(=O)N[C@H](C(=O)NCC(=O)N[C@@H](Cc1ccccc1)C(=O)N[C@@H](CC(C)C)C(=O)N[C@H](C(=O)N[C@@H](CCC(=O)O)C(=O)N[C@@H](Cc1cc(=O)oc2cc(OP(=O)(O)O)ccc12)C(=O)N[C@H](C(=O)N[C@@H](C)C(=O)N[C@H](C(=O)N[C@@H](CCCNC(=N)N)C(=O)N[C@@H](Cc1c[nH]c2ccccc12)C(N)=O)[C@@H](C)O)C(C)C)[C@@H](C)OP(=O)(O)O)[C@@H](C)O gave a kcat/Km of 5.22 s⁻¹ mM⁻¹ (DUSP3 (Homo sapiens, UniProt P51452); substrate; pH 6, ERK1/2 activation-loop peptide).
With C=CC(=O)Nc1cc(-n2c(=O)ccc3cnc4ccc(-c5cn[nH]c5)cc4c32)ccc1C the GI50 was 310 nM (TMD8; cell growth; 72 h).
For O=C(N[C@@H]1CC[C@@]2(O)[C@H]3Cc4ccc(O)c5c4[C@@]2(CCN3CC2CC2)[C@H]1O5)c1ccnc(Br)c1, the Emax was 57.3 ± 2.48% (Oprd1 (Mus musculus, UniProt P32300); agonist; CHO cell membranes; 5 µM; baseline: DPDPE).
Under “MIC of meropenem”, C[C@H](CS)C(=O)N[C@@H](Cc1c[nH]c2ccccc12)C(=O)O is recorded as 8 mg/L (Escherichia coli; VIM-1 producing; 50 µM, together with: meropenem).
CC(=O)NCCCC[C@H](NC(=O)[C@H](CCCCNC(C)=O)NC(=O)[C@H](Cc1c[nH]cn1)NC(=O)[C@H](CCCNC(=N)N)NC(C)=O)C(N)=O has a kcat/KM of 620 ± 180 M⁻¹ s⁻¹ (HDAC6; deacetylation, substrate; 25 °C, together with: 10 to 50 nM enzyme).
COC(=O)[C@@]1(C)C=C(C(=O)Nc2cc(C(=O)Nc3ccc(Nc4nccc(-c5cccnc5)n4)cc3)ccc2C)C(=O)CC1 gave a remaining activity of 0.147 (MAPK8; kinase activity, inhibitor; 0.1829 µM, unit not given, together with: 10 mM GSH; baseline: DMSO).
O=C(NC1CCCCC1)Oc1ccc(O)c(-c2ccccc2)c1 has an ID50 of 0.16 mg/kg (Faah (Mus musculus, UniProt O08914); enzyme activity, inhibitor; mouse, brain ex vivo; intraperitoneal).
The kcat/KM of CC(=O)NCCCC[C@H](NC(=O)CNC(=O)[C@H](CCCNC(=N)N)NC(C)=O)C(N)=O is reported as 530 ± 130 M⁻¹ s⁻¹ (HDAC6; deacetylation, substrate; 25 °C, together with: 10 to 50 nM enzyme).
With COc1c(Br)cc(Br)cc1CNC(=O)c1ccccc1[N+](=O)[O-] the melting temperature was 56 °C (lasR; thermal stability, differential scanning fluorimetry).
COc1ccc2c(c1)c(CC(=O)NCCCCNC(=O)CCC(=O)OC1c3cc4c(cc3C(c3cc(OC)c(OC)c(OC)c3)C3C(=O)OCC13)OCO4)c(C)n2C(=O)c1ccc(Cl)cc1 (centres unmarked) — result for “k2 forward rate constant”: 0.0024 s⁻¹ (Ptgs2 (Mus musculus, UniProt Q05769); time-dependent inhibitor; 37 °C).
With CC(C)c1ccc(NC(=O)CSc2nnc(-c3cnn(C)c3)n2C2CC2)cc1 the efficacy was 175% (Orco; calcium mobilization, agonist; HEK293 expressing Drosophila Orco; baseline: VUAA1).
With O=C(NCc1cc(Br)cc(Br)c1OC(=O)c1ccccc1[N+](=O)[O-])c1ccccc1Cl the maximum efficacy was 101% (lasR; reporter gene, agonist; Escherichia coli JLD271 lasI-lacZ reporter; baseline: OdDHL).
O=C(Cc1cccs1)NC(B(O)O)c1cccc(C(=O)O)c1 (centres unmarked) gave an adduct mass of 40600 Da (ADC-7 beta-lactamase (Acinetobacter baumannii, UniProt Q6DRA1); ESI-MS intact protein; 15 min, together with: enzyme 14 µM).
NC[C@@H](NC[C@@H]1CCCN1C[C@@H](CO)NC[C@@H](NCCC1CC2CCC1C2)c1ccccc1)c1ccccc1 (some centres unmarked): “potentiation of amikacin” 1.6 fold (Escherichia coli; bacterial growth; 8 µM, fold shift of IC90, together with: amikacin).
Under “IC50 fold change”, O=c1ccn([C@@H]2O[C@H](COP(=O)(O)OP(=O)(O)OP(=O)(O)O)[C@@H](O)[C@]2(F)Br)c(=O)[nH]1 is recorded as 70 (Genome polyprotein, NS5B polymerase (Hepatitis C virus genotype 1b, UniProt Q9WMX2, S2701T); polymerase activity, inhibitor; Hepatitis C virus, genotype 1b; baseline: genotype 1b wild type).
Under “ΔH of binding”, CC1(C)SCN(C(=O)[C@@H](O)[C@H](Cc2ccccc2)NC(=O)COc2ccccc2)[C@@H]1C(=O)N[C@H]1c2ccccc2C[C@H]1O is recorded as -4.5 kcal/mol (Gag-Pol polyprotein, protease (gag-pol, Human immunodeficiency virus type 1 group M subtype B, UniProt P04585, L521I/L551I/Q495K); isothermal titration calorimetry; concentration not given, pH 5.0, 25 °C).
For COc1ccc(CN[C@@H]2CO[C@H](C(c3ccccc3)c3ccccc3)C[C@H]2O)cc1, the inhibition was -4.7% (ADRB1 (Homo sapiens, UniProt P08588); radioligand binding, radioligand displacement; 10 µM).
With O=C(O)c1ccc(-c2cccc(C(=O)O)c2)cc1 the ligand efficiency was 0.44 (OXA-48 (Klebsiella pneumoniae, UniProt Q6XEC0); enzyme activity).
With COC(=O)[C@@H](CS)N1C(=O)c2ccc(N(C)C)cc2C1=O the fluorescence increase was 17 fold (blaNDM-1 (Klebsiella pneumoniae, UniProt C7C422, A233V/M154L); probe; 10 µM, NDM-15 variant, probe:enzyme 1:3, together with: ZnSO4 10 µM; baseline: probe alone).
With CC(=O)NCCCC[C@H](NC(=O)CNC(=O)[C@H](CCCNC(=N)N)NC(C)=O)C(=O)N[C@@H](Cc1c[nH]c2ccccc12)C(N)=O the kcat/KM was 15 ± 4 M⁻¹ s⁻¹ (HDAC8 (Homo sapiens, UniProt Q9BY41); deacetylation, substrate; 25 °C, together with: 150 nM enzyme).
For Cc1nc2c[nH]c(/C=C/C=C/c3ccc(N(C)C)cc3)cn-2c1=O, “signal enhancement relative to ThT” read 16.5 ± 3.4 (TAR DNA-binding protein 43, oligomeric (TARDBP, Homo sapiens, UniProt Q13148); oligomer detection; baseline: ThT).
For COCOc1c(Br)cc(Br)cc1CNC(=O)c1ccccc1[N+](=O)[O-], the maximum efficacy was 90% (lasR; reporter gene, agonist; Escherichia coli JLD271 lasI-lacZ reporter; baseline: OdDHL).
NCCNCCSc1ccccc1 has a pKa of 6.1 (spectrophotometry; pH 6.2).
